Experimental data pooled from the literature.
Numbered parts are unrelated; each lists some results of a single study. Substitutions count along the parent as printed.

Sample 1 — method: universal PBM; molecule type: double-stranded DNA, one strand shown; medium: in vitro; tested at: not given; direction: higher = stronger binding; measurement: E-score
Target: Sal-like protein 4, full length isoform B (SALL4, Homo sapiens, UniProt Q9UJQ4-2, residues 1-616)
Setting: 8-mer, flanks averaged, mean of replicates
CTTGCCGA: 0.00304
CCACACAA: 0.00907
AAGCGACC: -0.131
AAGCCAGC: -0.259
ATTTTAAG: 0.294
GGAGCTGA: -0.193
GGTACAAC: 0.0371
ACCCAATG: -0.0393
CTGGAAGC: -0.292
GGTGTCAC: -0.16
CGGAGCCG: -0.345

Sample 2 — target: CCNB1, cyclin fold, Cln2 fusion (human); method: yeast growth competition, sequencing; medium: yeast; setting: weak parent motif; reference: not given; direction: higher = stronger binding; measurement: normalised enrichment score
Starting sequence: CDC25A docking peptide (human); PPHRRRLLFACSP
PPHRRRLLFAQSP [C11Q]: 0.839
PPHRRRLLWACSP [F9W]: 0.464
PPHRRRPLFACSP [L7P]: 0.0208
QPHRRRLLFACSP [P1Q]: 0.534
PPHRAAAAFACSP [R5A R6A L7A L8A]: 0.14
PPHRRRLLFMCSP [A10M]: 0.716
PPHIRRLLFACSP [R4I]: 1.26
PPHRRRLLFAMSP [C11M]: 0.322

Sample 3 — method: protein-binding microarray; molecule type: double-stranded DNA, one strand shown; medium: in vitro; tested at: 0.8 µM; setting: whole 60-bp probe, no competitor; direction: higher = stronger binding; measurement: fluorescence intensity; all sequences stand within: … GTCTTGATTCGCTTGACGCTGCTG
Target: Centromere-binding protein 1, full length, N-terminal tag (CBF1, Saccharomyces cerevisiae, UniProt P17106, residues 1-351)
UniProt P17106, sequence (whole entry, looked up): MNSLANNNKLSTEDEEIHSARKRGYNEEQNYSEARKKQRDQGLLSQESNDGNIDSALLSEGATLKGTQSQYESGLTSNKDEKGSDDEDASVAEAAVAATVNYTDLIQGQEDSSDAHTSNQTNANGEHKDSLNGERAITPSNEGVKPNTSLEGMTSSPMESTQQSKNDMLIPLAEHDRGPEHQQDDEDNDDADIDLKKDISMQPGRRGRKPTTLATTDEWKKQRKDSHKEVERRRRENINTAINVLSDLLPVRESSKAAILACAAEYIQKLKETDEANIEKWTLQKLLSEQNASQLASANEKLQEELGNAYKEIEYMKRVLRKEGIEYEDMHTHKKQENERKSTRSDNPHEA
CTAACCTGAACAGATCACGATCATCCTTCAGAATTC: 603 a.u.
GAATGTCTTGAAATGCGCGTGTCCGTAAAATATTAG: 678 a.u.
GAAGGACAACTGTTGACCGTGATCCGAAGGACTTAG: 557 a.u.
CTATGCTCAAATTAGCATGTGAAAAAAAGATAATTC: 697 a.u.
CTATTGCACTAACTTTACGTGTCTTTTTGTTTTTTC: 494 a.u.
GAAGTAAGATCGGATCACGCTGCCAAGGCGCATTAG: 708 a.u.
CTACGTTTCTGCCGTCACGTTTCCTATTATCACTTC: 2290 a.u.
GAAACCACTGCTTTCCACCTGATTTACTCTCATTAG: 603 a.u.
TGTACGAAGCTATCGTACGTGAATATAGTAGTTAGG: 496 a.u.
CTATTATTCATTGATGGTGTGATTCTTCGAAACTTC: 573 a.u.
CTATATTCAGACCCTTACATCAGCAGCAGCACGTTC: 573 a.u.

Sample 4 — method: Sort-seq; item: YFP reporter; medium: E. coli; setting: PhoQ-PhoP variant library; together with: 10 µM Mg2+; reference: high Mg2+ state; direction: higher = stronger signaling; measurement: fold induction
Molecule: PhoQ, residues 284 288 289 292 302 303 SLSLLA
PhoP, residues 12 14 15 18 19 SHWTV (Escherichia coli, UniProt P23836): 25.3
PhoP, residues 12 14 15 18 19 STHWV (Escherichia coli, UniProt P23836): 27.9
PhoP, residues 12 14 15 18 19 QYCSL (Escherichia coli, UniProt P23836): 4.48
